{"data": "Measured values from different studies", "note": "Numbered parts are unrelated; each lists some results of a single study. Values joined by “and” are separate records of one study, mostly repeats; a detail may differ."}
{"data": "Sample 1", "cell line": "HEK-293T-ACE2-TMPRSS2", "method": "cell count", "tested at": "concentration not given"}
{"Structure (SMILES)": "COc1ccc(C(CC(=O)N2CCN(c3cnccn3)CC2)c2ccccc2)cc1 (centres unmarked)", "viability": "72%"}
{"Structure (SMILES)": "CCOC(=O)C1CCCN(c2ccc(-c3ccc(C)c(S(=O)(=O)N4CCOCC4)c3)nn2)C1 (centres unmarked)", "viability": "87%"}
{"Structure (SMILES)": "CC1=CC(C)(C)Nc2ccc(OC(=O)COc3ccccc3Cl)cc21", "viability": "73%"}
{"Structure (SMILES)": "COc1ccc(-c2noc(N3CCC(C(=O)NCC4CCN(Cc5ccc(C)cc5)C4)CC3)n2)cc1 (centres unmarked)", "viability": "68%"}
{"Structure (SMILES)": "ClC1(Cl)CC1CNc1ncnc2sc3c(c12)CCC3 (centres unmarked)", "viability": "87%"}
{"Structure (SMILES)": "CC(=O)C1=C(c2ccc(C(C)(C)C)cc2)N(C(C)=O)n2cnnc2S1", "viability": "65%"}
{"Structure (SMILES)": "Cc1ccc(CN(C)C(=O)CC(c2ccccc2)c2ccc3c(c2)OCO3)o1 (centres unmarked)", "viability": "106%"}
{"Structure (SMILES)": "CCc1ccc(C(=O)N2CCCC(c3cccc(C(=O)N4CCN(c5ccccc5F)CC4)c3)C2)cc1 (centres unmarked)", "viability": "68%"}
{"data": "Sample 2", "species": "mouse", "sample": "microsomes or S9", "tested at": "2 µM", "time": "0.5 h"}
{"Compound": "CNNC(=O)c1cc(Cl)cc(C)c1NC(=O)c1cc(Br)nn1-c1ncccc1Cl", "remaining compound [%]": 48}
{"Compound": "COC(=O)C1(c2ccccc2)CCN(C(=O)CCn2cncn2)CC1", "remaining compound [%]": 82}
{"Compound": "CSc1nc2ccccc2c(=O)n1-c1ccccc1", "remaining compound [%]": 1.18}
{"data": "Sample 3", "SMILES": "c1ccc(Oc2ccc(Nc3c4c(nc5ccccc35)CCC4)cc2)cc1", "organism": "Leishmania donovani", "effect on": "parasite growth"}
{"strain": "DD8 amphotericin B-resistant", "sample": "intracellular amastigotes", "tested at": "0.004 µM", "inhibition": "-1% and 1% and 5% and 2%"}
{"tested at": "20 µM", "setting": "intracellular, amastigote", "inhibition": "89%"}
{"strain": "DD8 amphotericin B-resistant", "sample": "intracellular amastigotes", "tested at": "4 µM", "inhibition": "91% and 96% and 99% and 86% and 98%"}
{"strain": "DD8 amphotericin B-resistant", "sample": "intracellular amastigotes", "tested at": "80 µM", "inhibition": "99% and 102% and 100% and 101%"}
{"strain": "DD8 amphotericin B-resistant", "sample": "promastigotes", "tested at": "3.33 µM", "inhibition": "51% and 63% and 54% and 66% and 56%"}
{"data": "Further values, each from its own experiment"}
{"Structure (SMILES)": "COc1ccc(-c2c(Nc3ccccn3)[nH]c3c(C4=CCCCC4)c(-c4ccccc4)nn3c2=O)cc1", "species": "patients with advanced malignancies", "route": "oral", "dose": "dose not given", "setting": "treatment-emergent adverse events", "quantity": "grade 3 alkaline phosphatase increased incidence", "value": "5%"}
{"note": "Some of these lines once more (sample 2):"}
{"Compound": "CNNC(=O)c1cc(Cl)cc(C)c1NC(=O)c1cc(Br)nn1-c1ncccc1Cl", "remaining compound [%]": 48}
{"Compound": "CSc1nc2ccccc2c(=O)n1-c1ccccc1", "remaining compound [%]": 1.18}
